Measurements gathered from unrelated publications.
Numbered parts are unrelated; each lists some results of a single study. Substitutions count along the parent as printed.
Chain of UniProt P08588 (whole entry, looked up): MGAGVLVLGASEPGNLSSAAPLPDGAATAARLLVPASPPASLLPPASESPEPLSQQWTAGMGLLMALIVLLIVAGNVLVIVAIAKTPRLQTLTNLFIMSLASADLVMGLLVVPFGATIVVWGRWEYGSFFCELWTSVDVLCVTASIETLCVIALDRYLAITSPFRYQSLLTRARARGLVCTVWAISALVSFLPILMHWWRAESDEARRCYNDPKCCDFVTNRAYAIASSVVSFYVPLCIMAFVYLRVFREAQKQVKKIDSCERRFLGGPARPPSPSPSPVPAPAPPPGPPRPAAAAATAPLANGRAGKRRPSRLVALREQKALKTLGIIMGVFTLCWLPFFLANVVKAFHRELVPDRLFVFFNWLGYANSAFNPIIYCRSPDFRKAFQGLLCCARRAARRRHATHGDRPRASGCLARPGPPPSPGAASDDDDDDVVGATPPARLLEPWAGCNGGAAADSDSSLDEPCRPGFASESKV

Set 1 — target: CCNA2, cyclin fold, Cln2 fusion (human); technique: yeast growth competition, sequencing; sample: yeast; notes: strong parent motif; relative to: not given; reading: higher = stronger binding; measurement: normalised enrichment score; parent: viral docking peptide; KGVKRKLFAEDSS
KGAKRKLFAEDSS [V3A]: 6.52
KGVWRKLFAEDSS [K4W]: 3.88
KGVKRLLFAEDSS [K6L]: 4.25
KGVKRKLFAEWSS [D11W]: 5.67
KGVKRKLFAEDQS [S12Q]: 5.75
KGVKTKLFAEDSS [R5T]: 2.4
KGVKEKLFAEDSS [R5E]: 0.819
KGVKIKLFAEDSS [R5I]: 3.25
KGVKRKLFAEDES [S12E]: 6.02
KGVKRKLFAEMSS [D11M]: 5.77
KGVKCKLFAEDSS [R5C]: 3.62
KGVARKLFAEDSS [K4A]: 6.56
KGVKRKLFAEDHS [S12H]: 5.76
KGVKRKTFAEDSS [L7T]: 0.935
KGVERKLFAEDSS [K4E]: 1.84
KGVKRKLFATDSS [E10T]: 5.89

Set 2 — technique: protein-binding microarray; form: double-stranded DNA, one strand shown; sample: in vitro; tested at: not given; reading: higher = stronger binding; measurement: E-score
Target: Max dimerization protein 1, bHLH-zipper, MAX partner unstated (MXD1, Homo sapiens, UniProt Q05195, residues 56-136)
Notes: k-mer, scored over probes, only values ≥0.25
Residues (chain): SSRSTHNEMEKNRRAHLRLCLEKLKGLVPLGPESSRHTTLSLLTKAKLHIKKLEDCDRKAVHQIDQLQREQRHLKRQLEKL
CACGTTTA: 0.308
GCACACGC: 0.38
AAGCACGC: 0.36
CTCCCACC: 0.306
CCGCCCCG: 0.335
CCACGCAC: 0.34
ATCTCATG: 0.324
AAGGGGGA: 0.272

Set 3 — technique: RNA Bind-n-Seq; form: RNA; sample: in vitro; tested at: 200 nM; notes: whole 134-nt RNA, ends assumed; with: 150 mM LiCl; relative to: input library; reading: higher = stronger binding; measurement: log2 enrichment; library: 7-deaza-guanosine replaces G
Target: Ras GTPase-activating protein-binding protein 1, full length (G3BP1, Homo sapiens, UniProt Q13283)
Chain of UniProt Q13283 (whole entry, looked up): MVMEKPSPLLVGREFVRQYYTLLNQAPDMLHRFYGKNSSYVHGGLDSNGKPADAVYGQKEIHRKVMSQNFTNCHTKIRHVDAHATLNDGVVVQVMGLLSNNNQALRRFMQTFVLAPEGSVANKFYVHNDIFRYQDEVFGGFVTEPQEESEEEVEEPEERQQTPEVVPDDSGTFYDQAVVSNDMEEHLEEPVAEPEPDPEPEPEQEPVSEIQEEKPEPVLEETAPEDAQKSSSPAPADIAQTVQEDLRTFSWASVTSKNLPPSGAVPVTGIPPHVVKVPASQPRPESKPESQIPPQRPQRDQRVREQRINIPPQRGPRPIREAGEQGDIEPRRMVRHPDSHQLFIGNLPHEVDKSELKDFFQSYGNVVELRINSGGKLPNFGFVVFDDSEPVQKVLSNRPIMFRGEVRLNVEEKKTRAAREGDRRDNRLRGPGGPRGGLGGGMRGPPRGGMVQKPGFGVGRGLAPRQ
Shared flanks, not repeated: GGGAGUUCUACAGUCCGACGAUC … UGGAAUUCUCGGGUGUCAAGG
AGUCCUGUGCUACACAUCGUAUGUACCGAAUCGGGAAAAAAAGGGAAAAAGGGUGGGAAAGUAUUAUGUUACGCCGUUCGGAUCUGCACU: -0.981
CACAGACAACACGCACCCACACAGACACAGAGGGAAGGGGUUGGGAUGGGGACAGGGUGCACAGCAGGGCGGGGUAGGACCCAAACCCCU: -0.579
UGGAGAUGACAGAAAUGACUGGUGUGUCGCUGAAACGUGGGGCACUGGUUGUCGAAGAUAAUGACAGUGGAGUCCCAGUUGAAGAGACAA: -2.86
GCCAUGCAGGUGGGCAUCUUUGGGAAGUGGGGCAAGGGGGGGAUAGGGAGGGGGGUAACACUUUGGGAACAGGUGGUCCCAGGUCGUUUC: 0.106
UUAGAAGAAUUUGGAAGGCCUUAAAUAUAGUAGCUUAGUUUGAAAAAUGUGAAGGACUUUCGUAACGGAAGUAAUUCAAGAUCAAGAGUA: -3.26
GUCCUGUGCUACACAUCGUAUGUACCGAAUCGGGUUUUUGGGUUUUUUUGGGAAAGGGAAAGUAUUAUGUUACGCCGUUCGGAUCUGCAC: -0.195
UCCUGUGCUACACAUCGUAUGUACCGAAUCGGGGUUUUUGGGGUUUUUGGUUUUUGGGGAAAGUAUUAUGUUACGCCGUUCGGAUCUGCA: 0.0346
GUCCUGUGCUACACAUCGUAUGUACCGAAUCGGGGAGGGGUUUGGGGAAAAAAAGGGGAAAGUAUUAUGUUACGCCGUUCGGAUCUGCAC: -0.652

Set 4 — technique: EMSA with sequencing; form: double-stranded DNA, one strand shown; sample: in vitro; tested at: 10 and 20 nM; relative to: negative control set to 0; reading: higher = stronger binding; measurement: normalised bound fraction
Target: Hepatocyte nuclear factor 3-alpha (Foxa1, Mus musculus, UniProt P35582, residues 1-468, full length assumed)
Notes: whole designed probe, mean of two concentrations, ends assumed
Shared flanks, not repeated: GTGAGCGGTGCCCATTGATGGGGAAC … TTTCACTGGGATCGTGGGGAC
Target sequence (chain): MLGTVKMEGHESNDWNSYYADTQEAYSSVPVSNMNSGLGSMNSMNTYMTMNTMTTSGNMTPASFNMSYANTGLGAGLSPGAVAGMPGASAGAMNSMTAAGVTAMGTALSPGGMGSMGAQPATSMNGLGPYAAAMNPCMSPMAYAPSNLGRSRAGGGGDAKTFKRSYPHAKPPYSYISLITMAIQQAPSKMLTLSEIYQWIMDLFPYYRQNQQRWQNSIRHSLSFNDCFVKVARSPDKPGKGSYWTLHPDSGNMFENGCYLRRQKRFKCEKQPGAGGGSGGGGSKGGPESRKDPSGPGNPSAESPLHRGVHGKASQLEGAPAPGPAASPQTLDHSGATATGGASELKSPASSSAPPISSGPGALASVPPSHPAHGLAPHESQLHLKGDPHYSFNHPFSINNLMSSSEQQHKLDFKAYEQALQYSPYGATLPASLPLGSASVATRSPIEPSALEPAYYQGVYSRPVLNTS
ATCTTCCCCCTCTTCCTTGCCCCACCAGCTCACCTACGGGGGTTATTTGCACAAAGGAAAATAAATAAAGCCGGCATTCGTTAACCCTCTTCACGCGCATACTGCTGTTTGCTCTGGATGAATCATGGTCCTTTGGCGACGCCAGGCTCCGGGAGAGCAAAGCACCGTGTCAGGGCCATGATCCGGGCTCGCC: 0.379 ratio
GGGGATTCTTTCATTATACAAATACATGTTATTTTTGAATTTCAGAAGAAATCATGATATGTCAATCTATTGAGTGCTAACTAAAAGTTCTCTTTGTTTACTTAGCTTTCTCTTAGTTGTAAGAAAGAAAAAGACGTCTTGCATGAAAATAGTACGTTGCGGGAAGAAATTGCCATGCTAAGACTGGAGCTAG: 0.503 ratio
CCCGGAGGACCCGACCGGAGAGGGCGAGAGGAGGAGGAGCCCGGGTGGCGGGAAGCGAGCCCAGGTTCCGGCCGCCTTGCGAGGGCACGCAGGGCAAACAGTGCTTTATCTTTCGCAGCGGCGATGAGCTGGTGACTTTTGGGGGTCATCCTGAGGGACATAGACGAAACTGGTTGGGAGGTAGTTAATTGCT: -0.00288 ratio
TACACACGTATAAAAATGCTGCATGGGTGAGTGTGACATAGGCAAGCTCTTTAACAGGTGAAGCATCAGAGACTCCTGCTAACCTGGGAGAAAGCAAACAGCCACAGGGAGAGAACAGGGCCACGTGGAAGGGACCTGAGGACGACCTCTAGGAGTTGAGTGGGGTTTCCTGCTGACAGCTAGCAGGAAAATA: 0.0956 ratio
ATCTTCCCCCTCTTCCTTGCCCCACCAGCTCACCTTCCCGGGTTATTTGCAGATAGGAAAATAAATAAAGCCGGCATTCGTTAACCCTCTTCTGGCGCAAACTGCTGTTTGCTCTGGATGAATCATGGTCCTTTGGCGACGCCAGGCTCCGGGAGAGCAAAGATCAGCCTGCGGGCCATGATCCGGGGTGGCC: 0.342 ratio

Mixed results
PhoQ, residues 284 288 289 292 302 303 SLGVVW  fold induction (PhoP, residues 12 14 15 18 19 TPLRH (Escherichia coli, UniProt P23836); Sort-seq, refers to: YFP reporter; E. coli; PhoQ-PhoP variant library, with: 10 µM Mg2+; relative to: high Mg2+ state, higher = stronger signaling): 8.7
Oc1ccc(OC[C@@H]2CNCC[C@H]2c2ccc(F)cc2)cc1O  IC50 (ADRB1 (Homo sapiens, UniProt P08588); antagonist): ≥ 100 µM

Some of these lines once more (set 4):
GGGGATTCTTTCATTATACAAATACATGTTATTTTTGAATTTCAGAAGAAATCATGATATGTCAATCTATTGAGTGCTAACTAAAAGTTCTCTTTGTTTACTTAGCTTTCTCTTAGTTGTAAGAAAGAAAAAGACGTCTTGCATGAAAATAGTACGTTGCGGGAAGAAATTGCCATGCTAAGACTGGAGCTAG: 0.503 ratio
ATCTTCCCCCTCTTCCTTGCCCCACCAGCTCACCTACGGGGGTTATTTGCACAAAGGAAAATAAATAAAGCCGGCATTCGTTAACCCTCTTCACGCGCATACTGCTGTTTGCTCTGGATGAATCATGGTCCTTTGGCGACGCCAGGCTCCGGGAGAGCAAAGCACCGTGTCAGGGCCATGATCCGGGCTCGCC: 0.379 ratio
CCCGGAGGACCCGACCGGAGAGGGCGAGAGGAGGAGGAGCCCGGGTGGCGGGAAGCGAGCCCAGGTTCCGGCCGCCTTGCGAGGGCACGCAGGGCAAACAGTGCTTTATCTTTCGCAGCGGCGATGAGCTGGTGACTTTTGGGGGTCATCCTGAGGGACATAGACGAAACTGGTTGGGAGGTAGTTAATTGCT: -0.00288 ratio
ATCTTCCCCCTCTTCCTTGCCCCACCAGCTCACCTTCCCGGGTTATTTGCAGATAGGAAAATAAATAAAGCCGGCATTCGTTAACCCTCTTCTGGCGCAAACTGCTGTTTGCTCTGGATGAATCATGGTCCTTTGGCGACGCCAGGCTCCGGGAGAGCAAAGATCAGCCTGCGGGCCATGATCCGGGGTGGCC: 0.342 ratio
TACACACGTATAAAAATGCTGCATGGGTGAGTGTGACATAGGCAAGCTCTTTAACAGGTGAAGCATCAGAGACTCCTGCTAACCTGGGAGAAAGCAAACAGCCACAGGGAGAGAACAGGGCCACGTGGAAGGGACCTGAGGACGACCTCTAGGAGTTGAGTGGGGTTTCCTGCTGACAGCTAGCAGGAAAATA: 0.0956 ratio
